{"data": "Results collected from several papers", "note": "Compare with care: the assays were run in different laboratories.", "chain of UniProt Q70CQ1 (whole entry, looked up)": "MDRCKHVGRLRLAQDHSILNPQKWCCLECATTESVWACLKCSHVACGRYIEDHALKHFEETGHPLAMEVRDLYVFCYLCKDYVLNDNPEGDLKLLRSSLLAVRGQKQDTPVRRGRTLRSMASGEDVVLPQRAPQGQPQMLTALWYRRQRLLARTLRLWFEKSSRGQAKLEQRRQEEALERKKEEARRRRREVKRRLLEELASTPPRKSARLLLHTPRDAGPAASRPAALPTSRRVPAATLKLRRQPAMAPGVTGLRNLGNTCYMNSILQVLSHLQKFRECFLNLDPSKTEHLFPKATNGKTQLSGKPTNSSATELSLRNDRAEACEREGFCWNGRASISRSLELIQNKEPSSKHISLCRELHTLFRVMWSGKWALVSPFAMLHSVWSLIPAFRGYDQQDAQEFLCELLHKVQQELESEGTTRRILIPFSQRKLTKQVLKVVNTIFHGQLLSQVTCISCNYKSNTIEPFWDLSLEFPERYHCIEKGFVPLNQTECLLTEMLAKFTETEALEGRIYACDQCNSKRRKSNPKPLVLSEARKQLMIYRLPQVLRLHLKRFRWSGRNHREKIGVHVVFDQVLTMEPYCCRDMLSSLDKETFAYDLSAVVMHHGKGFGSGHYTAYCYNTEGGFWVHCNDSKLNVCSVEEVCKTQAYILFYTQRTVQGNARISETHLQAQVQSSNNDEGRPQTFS"}
{"Structure (SMILES)": "O=C(Nc1ccc2c(c1)OC(F)(F)O2)Nc1ccc(Cl)c(C(F)(F)F)c1", "target or system": "A549", "conditions": "24 h", "endpoint": "CC50", "value": "15.5 µM"}
{"Structure (SMILES)": "CC(=O)c1c(O)c(C)c(O)c2c1OC1=CC(=O)C(C(C)=O)C(=O)C12C (stereo not shown)", "target or system": "LMH chicken hepatoma cells", "endpoint": "CC50", "value": "71.6 µM"}
{"Structure (SMILES)": "Nc1ncnc2c1nnn2[C@@H]1C(F)=C(CO)[C@@H](O)[C@H]1O", "target or system": "BHK-D2-Rluc", "assay": "MTT", "conditions": "48 (unit not given)", "endpoint": "CC50", "value": "> 100 µM"}
{"Structure (SMILES)": "CC(C)[C@@H]1NC(=O)[C@H](Cc2c[nH]cn2)NC1=O", "target or system": "L-02", "assay": "SRB", "endpoint": "CC50", "value": "> 15 µM"}
{"Structure (SMILES)": "COC1=CC(c2cc3ccccc3[nH]2)=N/C1=C\\c1[nH]c(C)cc1C", "target or system": "LMH chicken hepatoma cells", "endpoint": "CC50", "value": "41.9 µM"}
{"Structure (SMILES)": "[N-]=[N+]=N[C@]1(CO)O[C@@H](n2ccc(N)nc2=O)[C@@H](F)[C@@H]1O", "target or system": "DBT-9-hACE2", "assay": "cytotoxicity", "conditions": "48 (unit not given)", "endpoint": "CC50", "value": "> 100 µM"}
{"Structure (SMILES)": "O=c1[nH]cnc2c1nnn2[C@@H]1C(F)=C(CO)[C@@H](O)[C@H]1O", "target or system": "BHK-D2-Rluc", "assay": "MTT", "conditions": "48 (unit not given)", "endpoint": "CC50", "value": "> 100 µM"}
{"Structure (SMILES)": "NC(=O)C[C@H](N)C(=O)O", "assay": "binding, equilibrium dialysis LC-MS", "conditions": "5 µM, thermostabilized A2AR-BRIL construct", "how to read": "reference: no-protein control, direction not given", "endpoint": "z-scored log2 fold change", "value": 0.224}
{"Structure (SMILES)": "O=C(O)CCN1C(=O)c2ccccc2S1(=O)=O", "target or system": "Ubiquitin carboxyl-terminal hydrolase 49, ZnF-UBD domain (USP49, Homo sapiens, UniProt Q70CQ1)", "endpoint": "Kd", "value": "> 1000 µM"}
{"Structure (SMILES)": "N#C[C@@]1(c2ccc3c(N)ncnn23)O[C@H](CO)[C@@H](O)[C@H]1O", "target or system": "primary human hepatocytes", "assay": "measured: DNA", "conditions": "4 h", "endpoint": "CC50", "value": "> 100 µM"}
{"Structure (SMILES)": "Nc1nc(N)c2nnn([C@@H]3C(F)=C(CO)[C@@H](O)[C@H]3O)c2n1", "target or system": "BHK-D2-Rluc", "assay": "MTT", "conditions": "48 (unit not given)", "endpoint": "CC50", "value": "> 100 µM"}
{"Structure (SMILES)": "CC(C)=CCc1ncc(/C=C2\\NC(=O)[C@H](C(C)C)NC2=O)[nH]1", "target or system": "L-02", "assay": "SRB", "endpoint": "CC50", "value": "> 15 µM"}
{"Structure (SMILES)": "Oc1c(I)cc(I)c2cccnc12", "target or system": "LMH chicken hepatoma cells", "endpoint": "CC50", "value": "163 µM"}
{"Structure (SMILES)": "CNc1ncnc2c1nnn2[C@@H]1C(F)=C(CO)[C@@H](O)[C@H]1O", "target or system": "BHK-D2-Rluc", "assay": "MTT", "conditions": "48 (unit not given)", "endpoint": "CC50", "value": "> 100 µM"}
{"Structure (SMILES)": "CSc1ccc(OCc2ncc([N+](=O)[O-])n2C)cc1", "target or system": "LMH chicken hepatoma cells", "endpoint": "CC50", "value": "~200 µM"}
{"Structure (SMILES)": "CC(CC(=O)O)CC(=O)O", "assay": "binding, equilibrium dialysis LC-MS", "conditions": "5 µM, thermostabilized A2AR-BRIL construct", "how to read": "reference: no-protein control, direction not given", "endpoint": "z-scored log2 fold change", "value": -0.414}
{"note": "Repeated from above:"}
{"Structure (SMILES)": "COC1=CC(c2cc3ccccc3[nH]2)=N/C1=C\\c1[nH]c(C)cc1C", "target or system": "LMH chicken hepatoma cells", "endpoint": "CC50", "value": "41.9 µM"}
{"Structure (SMILES)": "Nc1nc(N)c2nnn([C@@H]3C(F)=C(CO)[C@@H](O)[C@H]3O)c2n1", "target or system": "BHK-D2-Rluc", "assay": "MTT", "conditions": "48 (unit not given)", "endpoint": "CC50", "value": "> 100 µM"}
{"Structure (SMILES)": "O=C(O)CCN1C(=O)c2ccccc2S1(=O)=O", "target or system": "Ubiquitin carboxyl-terminal hydrolase 49, ZnF-UBD domain (USP49, Homo sapiens, UniProt Q70CQ1)", "endpoint": "Kd", "value": "> 1000 µM"}
